Experimental data collected from several papers.
A part holds a random share of what one study measured.

Study 1
Target: Prothrombin, mature alpha-thrombin (F2, Homo sapiens, UniProt P00734)
Technique: aptamer microarray, sandwich
Molecule type: DNA with 2'F-ANA
Matrix: in vitro
Tested at: 200 nM
Setting: whole 15-mer aptamer, many near background
Together with: Cy3 exosite-II aptamer, 400 nM
Reading: higher = stronger binding
Endpoint: mean fluorescence intensity
GGTTGGTGTGGTTGG (2'F-ANA at 4 5 11 15): 93.4 a.u.
GGTTGGTGTGGTTGG (2'F-ANA at 4 5 6 8 10 11 14): 46.8 a.u.
GGTTGGTGTGGTTGG (2'F-ANA at 2 6 8 9 12): 613 a.u.

Study 2
Target: Histone acetyltransferase KAT6A, both winged helices, GST fusion (KAT6A, Homo sapiens, UniProt Q92794, residues 1-181)
Technique: protein binding microarray
Molecule type: double-stranded DNA, one strand shown
Matrix: in vitro
Tested at: not given
Setting: 8-mer, flanks averaged, mean of 2 arrays, mostly near background
Baseline: not given
Reading: higher = stronger binding
Endpoint: E-score
Residues (chain): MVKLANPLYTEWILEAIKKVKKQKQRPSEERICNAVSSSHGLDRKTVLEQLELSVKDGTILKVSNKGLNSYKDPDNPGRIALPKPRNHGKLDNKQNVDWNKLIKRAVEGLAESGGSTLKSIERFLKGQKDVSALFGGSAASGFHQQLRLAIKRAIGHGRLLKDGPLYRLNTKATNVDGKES
ACTCGCGA: 0.182
AACAGGAA: -0.0479
GATTCCAA: -0.148
ATTAGTAG: -0.0819

Study 3
Target: Interferon regulatory factor 7, full length, phosphomimetic (IRF7, Homo sapiens, UniProt Q92985, residues 1-503, S101K/S471D/S472D/S475D/S476D/S477D/S483D/S484D/S487D)
Sequence of UniProt Q92985 (whole entry, unmodified, looked up): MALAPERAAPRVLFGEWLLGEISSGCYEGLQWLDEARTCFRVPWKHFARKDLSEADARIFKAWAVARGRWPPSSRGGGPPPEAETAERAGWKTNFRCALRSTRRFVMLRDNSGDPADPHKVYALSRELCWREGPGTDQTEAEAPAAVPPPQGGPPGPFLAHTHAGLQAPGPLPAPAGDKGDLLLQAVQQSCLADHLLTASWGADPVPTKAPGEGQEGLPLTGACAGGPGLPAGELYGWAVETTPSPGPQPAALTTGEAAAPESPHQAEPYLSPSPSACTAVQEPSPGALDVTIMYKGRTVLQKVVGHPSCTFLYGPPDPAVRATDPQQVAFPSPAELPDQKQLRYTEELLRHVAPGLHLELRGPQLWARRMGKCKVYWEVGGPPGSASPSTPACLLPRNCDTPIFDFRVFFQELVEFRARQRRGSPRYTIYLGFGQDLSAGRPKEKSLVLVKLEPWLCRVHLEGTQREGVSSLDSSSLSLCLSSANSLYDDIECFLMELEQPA
Technique: protein-binding microarray
Molecule type: double-stranded DNA, one strand shown
Matrix: in vitro
Tested at: 250 nM
Setting: 60-bp whole probe
Together with: salmon DNA 0.4 mg/ml
Baseline: random background probes
Reading: higher = stronger binding
Endpoint: log fluorescence
GCCTAGCACGACGATTTCGGGTTTCGTGACGTGCTAGTCTTGATTCGCTTGACGCTGCTG: 2.64 z-score
GCCTAGCACTTAGGTTTCCTAATCCTTTAGTGCTAGGTCTTGATTCGCTTGACGCTGCTG: 2.25 z-score
GCCTAGCACACTCCTGTACATCTATGTAGGTGCTAGGTCTTGATTCGCTTGACGCTGCTG: 0.324 z-score
GCCTAGCACCTGAGGCTGCCGTGGCCATGGTGCTAGGTCTTGATTCGCTTGACGCTGCTG: -1.31 z-score

Further values, each from its own experiment
PhoQ, residues 284 288 289 292 302 303 TLMATV — fold induction (PhoP, residues 12 14 15 18 19 LWHVM (Escherichia coli, UniProt P23836); Sort-seq, measured: YFP reporter; E. coli; PhoQ-PhoP variant library, together with: 10 µM Mg2+; baseline: high Mg2+ state, higher = stronger signaling): 11.8

Excerpt of the above (study 1):
GGTTGGTGTGGTTGG (2'F-ANA at 4 5 6 8 10 11 14): 46.8 a.u.
GGTTGGTGTGGTTGG (2'F-ANA at 2 6 8 9 12): 613 a.u.
